Results gathered from unrelated publications.
A part holds a random share of what one study measured. Changes are numbered by the printed parent chain.
Sequence of UniProt P54756 (whole entry, looked up): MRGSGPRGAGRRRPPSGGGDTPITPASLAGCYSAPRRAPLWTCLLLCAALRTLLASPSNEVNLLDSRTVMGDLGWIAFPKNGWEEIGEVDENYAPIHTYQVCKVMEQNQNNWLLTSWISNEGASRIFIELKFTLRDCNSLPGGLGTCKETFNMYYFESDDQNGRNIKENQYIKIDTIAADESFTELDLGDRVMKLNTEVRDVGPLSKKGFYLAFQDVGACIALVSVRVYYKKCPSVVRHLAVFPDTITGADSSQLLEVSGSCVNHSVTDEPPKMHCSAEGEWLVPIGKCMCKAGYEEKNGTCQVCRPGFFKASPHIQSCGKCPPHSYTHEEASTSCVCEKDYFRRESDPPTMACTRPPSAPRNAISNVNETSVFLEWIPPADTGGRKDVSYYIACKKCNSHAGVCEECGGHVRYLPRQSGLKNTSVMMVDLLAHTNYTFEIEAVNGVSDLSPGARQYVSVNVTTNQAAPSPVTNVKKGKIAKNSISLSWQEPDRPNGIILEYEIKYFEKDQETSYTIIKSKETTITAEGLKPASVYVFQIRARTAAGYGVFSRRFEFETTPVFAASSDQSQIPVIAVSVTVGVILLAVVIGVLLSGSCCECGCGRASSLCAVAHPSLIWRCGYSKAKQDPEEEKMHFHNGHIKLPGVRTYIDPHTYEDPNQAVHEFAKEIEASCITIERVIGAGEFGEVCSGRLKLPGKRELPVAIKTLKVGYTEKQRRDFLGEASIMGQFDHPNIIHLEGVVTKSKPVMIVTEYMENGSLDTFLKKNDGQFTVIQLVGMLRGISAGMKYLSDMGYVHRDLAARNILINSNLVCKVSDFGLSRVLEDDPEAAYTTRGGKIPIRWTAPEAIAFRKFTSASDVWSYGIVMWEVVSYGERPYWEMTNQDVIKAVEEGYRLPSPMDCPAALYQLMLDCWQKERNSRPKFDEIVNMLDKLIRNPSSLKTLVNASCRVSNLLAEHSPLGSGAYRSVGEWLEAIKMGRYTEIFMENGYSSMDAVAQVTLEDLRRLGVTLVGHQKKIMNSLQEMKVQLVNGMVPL

Set 1 — target: CCNB2, cyclin fold, Cln2 fusion (human); method: yeast growth competition, sequencing; sample: yeast; notes: strong parent motif; relative to: not given; direction: higher = stronger binding
Parent: viral docking peptide; YKVKRRLVFGADD; partner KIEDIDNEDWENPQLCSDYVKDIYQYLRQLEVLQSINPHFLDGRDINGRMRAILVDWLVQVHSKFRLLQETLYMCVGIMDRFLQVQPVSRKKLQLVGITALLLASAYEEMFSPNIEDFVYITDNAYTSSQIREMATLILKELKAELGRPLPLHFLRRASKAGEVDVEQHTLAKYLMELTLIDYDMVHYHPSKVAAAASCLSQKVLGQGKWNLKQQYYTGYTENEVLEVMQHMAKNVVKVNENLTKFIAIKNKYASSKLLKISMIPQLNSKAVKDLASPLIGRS
Under “normalised enrichment score”, `V8P` is recorded as 0.611.
Under “normalised enrichment score”, `G10T` is recorded as 2.1.
`F9D` — result for “normalised enrichment score”: 0.3.
For `R5E`, “normalised enrichment score” read 0.473.
`V8G`: “normalised enrichment score” -0.0388.
For `K2Y`, “normalised enrichment score” read 1.38.
`L7D`: “normalised enrichment score” 0.29.
`V8D`: “normalised enrichment score” 3.58.

Set 2 — target: vanadate, free oxyanion; method: microfluidic competitive inhibition; sample: in vitro, cell-free expressed; concentration: not given; direction: lower = stronger binding
Notes: derived from inhibition constants, unchanged parent 676 nM
Parent: PafA, mature enzyme, eGFP fusion (Elizabethkingia meningoseptica, UniProt Q9KJX5); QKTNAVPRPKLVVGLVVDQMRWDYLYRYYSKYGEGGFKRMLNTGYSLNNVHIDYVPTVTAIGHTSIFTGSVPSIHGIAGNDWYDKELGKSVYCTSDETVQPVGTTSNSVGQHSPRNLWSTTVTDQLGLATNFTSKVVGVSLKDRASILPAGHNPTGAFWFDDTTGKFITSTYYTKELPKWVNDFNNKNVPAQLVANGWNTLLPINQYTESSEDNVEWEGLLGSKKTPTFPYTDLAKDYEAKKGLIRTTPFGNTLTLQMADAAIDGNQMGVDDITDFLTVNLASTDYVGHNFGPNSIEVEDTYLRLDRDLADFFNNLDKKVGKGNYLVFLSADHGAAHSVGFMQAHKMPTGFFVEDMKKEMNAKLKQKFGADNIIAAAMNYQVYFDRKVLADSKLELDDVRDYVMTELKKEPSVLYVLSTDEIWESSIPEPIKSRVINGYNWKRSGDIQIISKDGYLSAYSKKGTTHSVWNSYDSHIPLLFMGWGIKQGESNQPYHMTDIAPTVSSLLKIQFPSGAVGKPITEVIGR
`P9G` — result for “oxyanion analog dissociation constant”: 986 nM.
Under “oxyanion analog dissociation constant”, `D332G` is recorded as 1.62 µM.
`V435G`: “oxyanion analog dissociation constant” 1.04 µM.
`P512V`: “oxyanion analog dissociation constant” 643 nM.
Under “oxyanion analog dissociation constant”, `T278G` is recorded as 945 nM.
`D275V`: “oxyanion analog dissociation constant” 1.27 µM.
Under “oxyanion analog dissociation constant”, `Y459V` is recorded as 714 nM.
`V435A`: “oxyanion analog dissociation constant” 837 nM.

Set 3 — read-out: binding; method: phage display NGS; molecule type: peptide; relative to: input library
Target: UDP-N-acetylglucosamine--peptide N-acetylglucosaminyltransferase 110 kDa subunit (OGT, Homo sapiens, UniProt O15294)
Sequence of UniProt O15294 (whole entry, looked up): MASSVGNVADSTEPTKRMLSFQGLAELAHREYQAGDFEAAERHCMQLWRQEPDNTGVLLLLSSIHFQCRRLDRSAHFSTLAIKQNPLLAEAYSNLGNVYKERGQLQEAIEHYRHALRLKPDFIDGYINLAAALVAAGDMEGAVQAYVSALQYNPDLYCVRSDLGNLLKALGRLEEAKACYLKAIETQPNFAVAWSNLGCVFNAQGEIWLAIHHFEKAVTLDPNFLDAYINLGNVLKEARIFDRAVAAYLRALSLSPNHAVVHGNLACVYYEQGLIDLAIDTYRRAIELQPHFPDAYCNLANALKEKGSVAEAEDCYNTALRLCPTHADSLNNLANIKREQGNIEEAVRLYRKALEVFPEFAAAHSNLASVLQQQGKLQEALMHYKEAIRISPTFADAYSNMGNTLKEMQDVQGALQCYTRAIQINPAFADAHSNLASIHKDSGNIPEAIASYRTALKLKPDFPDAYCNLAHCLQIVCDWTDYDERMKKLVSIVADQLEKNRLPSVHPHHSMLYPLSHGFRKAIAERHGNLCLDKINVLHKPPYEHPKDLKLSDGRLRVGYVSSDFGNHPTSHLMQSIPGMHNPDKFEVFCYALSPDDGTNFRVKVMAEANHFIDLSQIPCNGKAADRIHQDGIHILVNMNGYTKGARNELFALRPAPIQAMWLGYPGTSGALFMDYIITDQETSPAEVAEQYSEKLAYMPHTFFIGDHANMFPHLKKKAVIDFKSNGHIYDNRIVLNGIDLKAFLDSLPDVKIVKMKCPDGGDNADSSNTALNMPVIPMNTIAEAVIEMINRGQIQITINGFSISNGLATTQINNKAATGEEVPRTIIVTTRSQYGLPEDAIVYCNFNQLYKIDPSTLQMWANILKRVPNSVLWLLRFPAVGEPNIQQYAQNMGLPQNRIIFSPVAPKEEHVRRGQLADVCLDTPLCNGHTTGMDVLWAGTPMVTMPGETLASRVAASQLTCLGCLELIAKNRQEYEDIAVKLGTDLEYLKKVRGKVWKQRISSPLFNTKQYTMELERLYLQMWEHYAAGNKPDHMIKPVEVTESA
`QYTPKYQIKTPFIIS`: “minimum log2 enrichment ratio” 3.45.
For `HLTHRHSYIKADHSL`, “minimum log2 enrichment ratio” read 3.01.
`GMRQPPYMPLYQIEV` — result for “minimum log2 enrichment ratio”: 4.47.
Under “minimum log2 enrichment ratio”, `HVFHHDVVRDYHNMH` is recorded as 2.52.
`HWQDHHFVSDNTYFR`: “minimum log2 enrichment ratio” 1.98.
For `QSLVTQYYPKYQIRI`, “minimum log2 enrichment ratio” read 4.32.
For `QWPVIGWHTHATYIH`, “minimum log2 enrichment ratio” read 1.44.
`YSTHDTHMWHQTHAM`: “minimum log2 enrichment ratio” 1.88.

Single results of other studies
The remaining activity of `N/C(=N\[N+](=O)[O-])N/N=C\c1ccc(-c2cccc([N+](=O)[O-])c2)o1` is reported as 100% (Ephrin type-A receptor 5 (EPHA5, Homo sapiens, UniProt P54756); enzyme activity, inhibitor; 0.5 µM; relative to: control).

Repeated from above (set 2):
`D275V`: “oxyanion analog dissociation constant” 1.27 µM.
Under “oxyanion analog dissociation constant”, `D332G` is recorded as 1.62 µM.
`P512V`: “oxyanion analog dissociation constant” 643 nM.
